Assay results collected from several papers.
Lines come from different studies, so protocols differ.
Medium: plasma

SMILES | system | conditions | AUC(0-inf)
CC1(C)CC[C@]2(NC(=O)C(C)(F)F)CC[C@]3(C)[C@H](C(=O)C=C4[C@@]5(C)C=C(C#N)C(=O)C(C)(C)[C@@H]5CC[C@]43C)[C@@H]2C1 | human | oral, dose not given, geometric least-squares mean, together with: gemfibrozil | 1.32 µg·h/mL
N#Cc1cc(NC(=O)C2c3ccccc3C(=O)N(CC(F)(F)F)C2c2ccc[n+]([O-])c2)ccc1F (stereo not drawn) | human | 600 mg, fed, median | 33 µg·h/mL
CN1CCC[C@]1(C)/C=C/S(=O)(=O)NC(=O)Nc1c2c(cc3c1CCC3O)CCC2 (stereo partly drawn) | human | oral, 50 mg twice daily of parent drug, day 14, metabolite of dosed drug | 964 µg·h/mL
CC(C)C[C@H](NC(=O)[C@H](CCCN)NC(=O)CNC(=O)[C@@H](NC(=O)[C@H](C)NC(=O)[C@@H]1CSCSC[C@H](NC(=O)CC[C@H](N)C(=O)O)C(=O)N[C@@H](CC(N)=O)C(=O)N[C@@H]([C@@H](C)O)C(=O)N[C@@H](C)C(=O)N[C@@H]([C@@H](C)O)C(=O)N1)[C@@H](C)O)C(=O)N[C@@H](C)C(=O)N[C@@H](CCC(=O)O)C(=O)N[C@@](C)(Cc1ccccc1)C(=O)N[C@@H](CC(C)C)C(=O)N[C@H](C(=O)N[C@@H](CCCNC(=N)N)C(=O)N[C@@H](CO)C(=O)N[C@@H](CO)C(=O)N[C@@H](CC(N)=O)C(=O)N(C)[C@@H](CC(N)=O)C(=O)N[C@@H](Cc1ccccc1)C(=O)NCC(=O)N1CCC[C@H]1C(=O)N[C@@H](CCCCNC(=O)CC[C@H](NC(=O)CC[C@H](NC(=O)CCCCCCCCCCCCCCCCCCC(=O)O)C(=O)O)C(=O)O)C(=O)N[C@@H](CC(C)C)C(=O)N1CCC[C@H]1C(=O)N1CCC[C@H]1C(=O)N[C@H](C(=O)N[C@@H](CCC(=O)O)C(=O)N[C@H](C(=O)NCC(=O)N[C@@H](CO)C(=O)N[C@@H](CC(N)=O)C(=O)N[C@H](C(=O)N[C@@H](Cc1ccc(O)cc1)C(N)=O)[C@@H](C)O)C(C)C)[C@@H](C)O)C(C)C | healthy human | subcutaneous, 4 mg | 224 µg·h/mL
Cc1cc(F)ccc1-c1cc(N2C[C@H]3COC(O)CN3C[C@H]2CO)ncc1N(C)C(=O)C(C)(C)c1cc(C(F)(F)F)cc(C(F)(F)F)c1 (stereo partly drawn) | human | oral, 120 mg, geometric mean | 2.45 µg·h/mL
CN1CCC[C@]1(C)/C=C/S(=O)(=O)NC(=O)Nc1c2c(cc3c1C(O)CC3)CCC2 (stereo partly drawn) | human | oral, 12.5 mg twice daily of parent drug, day 14, metabolite of dosed drug | 97.3 µg·h/mL
CCCCCCCCCCCCCCCC(=O)N[C@@H](CCCCN)C(=O)N[C@@H](CCCCN)C(=O)N[C@@H](CO)C(=O)N[C@@H](CCCNC(=N)N)C(=O)N[C@@H](C)C(=O)N[C@@H](CC(C)C)C(=O)N[C@@H](Cc1ccccc1)C(N)=O | human patients | intravenous, 0.3 mg/kg over 2 h | 3.53 µg·h/mL
CN1CCC[C@]1(C)/C=C/S(=O)(=O)NC(=O)Nc1c2c(cc3c1CCC3)CC=C2 | human | oral, 100 mg twice daily of parent drug, day 14, metabolite of dosed drug | 1260 µg·h/mL
CN(C(=O)C(C)(C)c1cc(C(F)(F)F)cc(C(F)(F)F)c1)c1cnc(N2C[C@H]3COC(O)CN3C[C@H]2CO)cc1-c1ccc(F)cc1CO (stereo partly drawn) | human | oral, 120 mg, geometric mean | 1.2 µg·h/mL

A few entries again:
SMILES | system | conditions | AUC(0-inf)
Cc1cc(F)ccc1-c1cc(N2C[C@H]3COC(O)CN3C[C@H]2CO)ncc1N(C)C(=O)C(C)(C)c1cc(C(F)(F)F)cc(C(F)(F)F)c1 (stereo partly drawn) | human | oral, 120 mg, geometric mean | 2.45 µg·h/mL
